Results gathered from unrelated publications.
Protocols differ between the studies behind these lines. ± gives the spread as reported.

Structure (SMILES) | target or system | test | system | conditions | quantity | result
O=C1NC2(CC2)COc2ncc(F)cc2[C@H]2COCCN2c2ccn3ncc1c3n2 |  |  | Sprague-Dawley rat, female, serum | oral, 10 mg/kg/day, 4 weeks daily, end of treatment | glucose | 7.4 ± 0.96 mmol/L
CC[C@H](C)[C@H](NC(=O)[C@@H](CCCNC(=N)N)NC(=O)[C@H](CCCNC(=N)N)NC(=O)[C@H](CCC(N)=O)NC(=O)[C@H](Cc1c[nH]c2ccccc12)NC(=O)[C@H](CCCNC(=N)N)NC(=O)[C@@H]1CCCN1C(=O)[C@H](CCCNC(=N)N)NC(=O)[C@@H]1CCCN1C(=O)[C@H](CC(C)C)NC(=O)[C@H](Cc1ccc(O)cc1)NC(=O)[C@@H]1CCCN1C(=O)[C@@H]1CCCN1C(=O)[C@H](CCCCN)NC(=O)[C@H](CC(=O)O)NC(=O)[C@@H](N)C(C)C)C(=O)N[C@@H](Cc1ccc(O)cc1)C(=O)N[C@@H](CC(N)=O)C(=O)N[C@H](CCCNC(=N)N)C(N)=O | Escherichia coli | broth microdilution | BW25113 | 18 h, 37 °C, 25% MHB2 | MIC | 8 µg/mL
CCn1c(-c2ccc(-c3ccc(OC)cc3)cc2)c(-c2ccc(-c3ccc(OC)cc3)cc2)n(CC)c1=[Se] | Escherichia coli | broth microdilution | carbapenem-resistant BAA-2140 | 24 h | MIC | > 40 µM
CC(C)C[C@@H](NC(=O)[C@H](NC(=O)[C@@H](CCCCN)NC(=O)[C@@H](CCCCN)NC(=O)[C@@H](CC(C)C)NC(=O)[C@@H](Cc1c[nH]c2ccccc12)NC(=O)[C@@H](CCCCN)NC(=O)[C@@H](Cc1c[nH]c2ccccc12)NC(=O)[C@@H](CC(C)C)NC(=O)[C@@H](CCCCN)NC(=O)[C@@H](CCCCN)NC(=O)[C@H](N)C(C)C)C(C)C)C(N)=O | Escherichia coli |  |  | 24 h, 37 °C, Mueller-Hinton broth, NH4Cl 6 µM | MIC | 8 µM
O=C(NCc1ccccc1)C(CCc1ccccc1)N(CCc1c[nH]cn1)C(=O)c1ccccc1 (racemic) | Escherichia coli |  | TolC |  | MIC | 128 µM
CC[C@H](C)[C@H](NC(=O)[C@H](CCCNC(=N)N)NC(=O)[C@H](CO)NC(=O)[C@H](Cc1ccc(O)cc1)NC(=O)[C@@H](NC(=O)[C@@H](NC(=O)[C@H](C)NC(=O)CNC(=O)[C@H](CCCCN)NC(=O)[C@H](CCCCN)NC(=O)CCNC(=O)CCCCCNC(=O)[C@H](CCCNC(=N)N)NC(=O)CCCCCNC(=O)[C@H](CCCNC(=N)N)NC(=O)[C@H](CCCNC(=N)N)NC(=O)CCCCCNC(=O)[C@H](CCCNC(=N)N)NC(=O)[C@H](CCCNC(=N)N)NC(=O)CCCCCNC(=O)[C@H](CCCNC(=N)N)NC(=O)[C@H](CCCNC(=N)N)NC(=O)CCCCCNC(=O)[C@@H](N)CCCNC(=N)N)C(C)C)[C@@H](C)O)C(=O)N[C@@H](CO)C(=O)NCC(=O)N[C@@H](CCC(N)=O)C(=O)N[C@@H](Cc1ccc(O)cc1)C(=O)N[C@@H](CCCCN)C(=O)O | Escherichia coli |  | ATCC 25922, Mueller-Hinton broth | together with: KCl 4.5 mM | MIC | 6 µM
CC[C@H](C)[C@H](NC(=O)[C@H](Cc1c[nH]c2ccccc12)NC(=O)[C@H](CCCCN)NC(=O)[C@H](CC(C)C)NC(=O)[C@@H](NC(=O)[C@@H](NC(=O)CNC(=O)[C@H](CCCCN)NC(=O)[C@H](Cc1c[nH]cn1)NC(=O)[C@H](CCCCN)NC(=O)[C@H](Cc1c[nH]c2ccccc12)NC(=O)[C@H](C)NC(=O)[C@H](CC(C)C)NC(=O)[C@H](CO)NC(=O)[C@@H](NC(=O)[C@H](Cc1ccc(O)cc1)NC(=O)[C@H](CCCCN)NC(=O)[C@H](CCC(N)=O)NC(=O)CNC(=O)[C@H](CCCCN)NC(=O)[C@@H](NC(=O)[C@H](C)NC(=O)[C@H](CC(C)C)NC(=O)[C@H](Cc1ccccc1)NC(=O)[C@H](CCC(N)=O)NC(=O)[C@@H](NC(=O)[C@H](CC(C)C)NC(=O)[C@H](CCCCN)NC(=O)[C@H](CCSC)NC(=O)[C@H](Cc1ccccc1)NC(=O)[C@H](C)NC(=O)[C@H](C)NC(=O)[C@@H](N)CCSC)[C@@H](C)CC)[C@@H](C)O)C(C)C)[C@@H](C)O)[C@@H](C)CC)C(=O)N[C@@H](CC(N)=O)C(N)=O | Escherichia coli | broth microdilution | ATCC 15597 | 24 h, 37 °C | MIC | 6 µg/mL
CC[C@H](C)[C@H](NC(=O)[C@@H](CCCNC(=N)N)NC(=O)[C@H](CCCNC(=N)N)NC(=O)[C@@H]1CCCN1C(=O)[C@@H]1CCCN1C(=O)[C@H](CCCNC(=N)N)NC(=O)[C@@H]1CCCN1C(=O)[C@H](CCCNC(=N)N)NC(=O)[C@@H]1CCCN1C(=O)[C@H](CC(C)C)NC(=O)[C@H](Cc1ccc(O)c([N+](=O)[O-])c1)NC(=O)[C@@H]1CCCN1C(=O)[C@@H]1CCCN1C(=O)[C@H](CCCCN)NC(=O)[C@H](CC(=O)O)NC(=O)[C@@H](N)C(C)C)C(=O)N[C@@H](Cc1ccc(O)cc1)C(=O)N[C@@H](CC(N)=O)C(=O)N[C@H](CCCNC(=N)N)C(N)=O | Escherichia coli | broth microdilution | MC4100 | 18 h, 37 °C, 25% MHB2 | MIC | 8 µg/mL
CC[C@H](C)[C@@H]1NC(=O)CNC(=O)[C@H](CCCNC(=N)N)NC(=O)[C@H](Cc2ccc(O)cc2)NC(=O)[C@@H]2CSSC[C@H](NC1=O)C(=O)N[C@@H](Cc1ccc(O)cc1)C(=O)N[C@@H](CCCNC(=N)N)C(=O)N[C@@H](CCCCN)C(=O)N[C@H](C(=O)N[C@@H](CCCNC(=N)N)C(N)=O)CSSC[C@H](NC(=O)[C@H](Cc1c[nH]c3ccccc13)NC(=O)[C@@H](N)CCCNC(=N)N)C(=O)N[C@@H](Cc1ccccc1)C(=O)N[C@@H](CCCNC(=N)N)C(=O)N[C@@H](C(C)C)C(=O)N2 | Escherichia coli | broth dilution | K12 BW25113 | 18 h, 37 °C | MIC | 1.7 µM
CC1(C)[C@H](NC(=O)/C(=N\OCc2c(Cl)cccc2Cl)c2nsc(N)n2)C(=O)N1OS(=O)(=O)O | Escherichia coli | agar dilution | CDC 1001728, NDM-1 |  | MIC | 32 µg/mL
CCCCCCCC(=O)N[C@@H](CCN)C(=O)N[C@H](C(=O)N[C@@H](CCN)C(=O)N[C@H]1CCNC(=O)[C@H]([C@@H](C)O)NC(=O)[C@H](CCN)NC(=O)[C@H](CCN)NC(=O)[C@H](CCC(C)C)NC(=O)[C@@H](Cc2ccccc2)NC(=O)[C@H](CCN)NC1=O)[C@@H](C)O | Escherichia coli | broth microdilution | ATCC 25922 |  | MIC | 0.125 to 0.25 µg/mL
CC[C@H](C)[C@H](NC(=O)[C@@H](CCCNC(=N)N)NC(=O)[C@H](CCCNC(=N)N)NC(=O)[C@@H](NC(=O)[C@H](Cc1c[nH]c2ccccc12)NC(=O)[C@H](CCCNC(=N)N)NC(=O)[C@@H]1CCCN1C(=O)[C@H](CCCNC(=N)N)NC(=O)[C@@H]1CCCN1C(=O)[C@H](CC(C)C)NC(=O)[C@H](Cc1ccc(O)cc1)NC(=O)[C@@H]1CCCN1C(=O)[C@@H]1CCCN1C(=O)[C@H](CCCCN)NC(=O)[C@H](CC(=O)O)NC(=O)[C@@H](N)C(C)C)[C@@H](C)O)C(=O)N[C@@H](Cc1ccc(O)cc1)C(=O)N[C@@H](CC(N)=O)C(=O)N[C@H](CCCNC(=N)N)C(N)=O | Escherichia coli | broth microdilution | MC4100 | 18 h, 37 °C, 25% MHB2 | MIC | 8 µg/mL
CO[C@@H](C(N)=O)[C@H](NC(=O)c1ccc(NC(=O)[C@@H](N)Cc2ccc(O)cc2)cc1)C(=O)Nc1ccc(C(=O)Nc2ccc(C(=O)Nc3ccc(C(=O)O)cc3)c(O)c2OC(C)C)cc1 | Escherichia coli |  | pentapeptide repeat protein clone | 16 h, 37 °C | MIC | > 8 µg/mL
CC[C@H](C)[C@H](NC(=O)[C@@H](CCCNC(=N)N)NC(=O)[C@H](CCCNC(=N)N)NC(=O)[C@H](Cc1ccc(O)cc1)NC(=O)[C@H](Cc1c[nH]c2ccccc12)NC(=O)[C@H](CCCNC(=N)N)NC(=O)[C@@H]1CCCN1C(=O)[C@H](CCCNC(=N)N)NC(=O)[C@@H]1CCCN1C(=O)[C@H](CC(C)C)NC(=O)[C@H](Cc1ccc(O)cc1)NC(=O)[C@@H]1CCCN1C(=O)[C@@H]1CCCN1C(=O)[C@H](CCCCN)NC(=O)[C@H](CC(=O)O)NC(=O)[C@@H](N)C(C)C)C(=O)N[C@@H](Cc1ccc(O)cc1)C(=O)N[C@@H](CC(N)=O)C(=O)N[C@H](CCCNC(=N)N)C(N)=O | Escherichia coli | broth microdilution | MC4100 | 18 h, 37 °C, 25% MHB2 | MIC | 16 µg/mL
CO/N=C(\C(=O)N[C@@H]1C(=O)N2C(C(=O)O)=C(COC(N)=O)CS[C@H]12)c1ccco1 | Escherichia coli |  | 25922, Mueller-Hinton broth | 18 to 24 h, 37 °C | MIC | 2 µg/mL
CC(C)Oc1ccc(B(O)O)c(F)n1 | Escherichia coli | bacterial growth | CTX-M-14 ESBL clinical isolate | without cefotaxime | MIC | 1020 µg/mL
CC[C@H](C)[C@H](NC(=O)[C@@H](NC(=O)[C@H](CCCCN)NC(=O)[C@H](CCCCN)NC(=O)[C@@H](NC(=O)[C@H](Cc1c[nH]c2ccccc12)NC(=O)[C@H](CCCCN)NC(=O)[C@H](Cc1c[nH]c2ccccc12)NC(=O)[C@H](CC(C)C)NC(=O)[C@H](CCCCN)NC(=O)[C@H](CCCCN)NC(=O)[C@@H](N)C(C)C)[C@@H](C)CC)C(C)C)C(N)=O | Escherichia coli |  |  | 24 h, 37 °C, Mueller-Hinton broth, CaCl2 2.5 mM | MIC | 32 µM
CC[C@H](C)[C@H](NC(=O)[C@@H](CCC(=O)O)NC(=O)[C@H](CC(C)C)NC(=O)c1cccc(C(=O)O)n1)C(=O)N[C@H]1CCCCNC(=O)[C@H](CC(N)=O)NC(=O)[C@@H](CC(=O)O)NC(=O)[C@H](Cc2c[nH]cn2)NC(=O)[C@@H](Cc2ccccc2)NC(=O)[C@H]([C@@H](C)CC)NC(=O)[C@@H](CCCN)NC1=O | Escherichia coli |  | ATCC 25922 | 18 h, 37 °C, 0.3 mM ZnSO4 LB | MIC | > 64 µg/mL
CC[C@H](C)[C@H](NC(=O)[C@@H](NC(=O)[C@H](C)NC(=O)[C@@H](NC(=O)[C@H](C)NC(=O)[C@@H]1CCCN1C(=O)CNC(=O)[C@H](C)NC(=O)[C@H](CC(N)=O)NC(=O)[C@H](CCCCN)NC(=O)[C@@H](NC(=O)[C@H](C)NC(=O)[C@H](CC(N)=O)NC(=O)[C@H](CCCNC(=N)N)NC(=O)[C@@H](NC(=O)[C@H](CCCNC(=N)N)NC(=O)[C@H](CCCNC(=N)N)NC(=O)[C@@H](NC(=O)[C@@H](NC(=O)[C@H](CCCCN)NC(=O)[C@H](CCC(=O)O)NC(=O)[C@H](CC(C)C)NC(=O)[C@H](CCCCN)NC(=O)[C@H](CCCCN)NC(=O)[C@H](CC(C)C)NC(=O)[C@@H]1CCCN1C(=O)[C@H](CCCCN)NC(=O)[C@H](Cc1c[nH]c2ccccc12)NC(=O)[C@@H](N)CCCNC(=N)N)C(C)C)C(C)C)C(C)C)C(C)C)C(C)C)C(C)C)C(=O)NCC(=O)N[C@@H](CC(=O)O)C(=O)O | Escherichia coli | broth microdilution | K88, Mueller-Hinton broth | 37 °C | MIC | 4.39 µg/mL
CN[C@@H]1[C@H](O)[C@H](NC)[C@H]2O[C@]3(O)[C@H](O[C@@H]2[C@H]1O)O[C@H](C)C[C@H]3NC(=O)CNC(C)(C)C | Escherichia coli | microbial growth, broth dilution | K12 |  | MIC | > 200 µg/mL

A few entries again:
Structure (SMILES) | target or system | test | system | conditions | quantity | result
CC[C@H](C)[C@H](NC(=O)[C@@H](CCCNC(=N)N)NC(=O)[C@H](CCCNC(=N)N)NC(=O)[C@H](CCC(N)=O)NC(=O)[C@H](Cc1c[nH]c2ccccc12)NC(=O)[C@H](CCCNC(=N)N)NC(=O)[C@@H]1CCCN1C(=O)[C@H](CCCNC(=N)N)NC(=O)[C@@H]1CCCN1C(=O)[C@H](CC(C)C)NC(=O)[C@H](Cc1ccc(O)cc1)NC(=O)[C@@H]1CCCN1C(=O)[C@@H]1CCCN1C(=O)[C@H](CCCCN)NC(=O)[C@H](CC(=O)O)NC(=O)[C@@H](N)C(C)C)C(=O)N[C@@H](Cc1ccc(O)cc1)C(=O)N[C@@H](CC(N)=O)C(=O)N[C@H](CCCNC(=N)N)C(N)=O | Escherichia coli | broth microdilution | BW25113 | 18 h, 37 °C, 25% MHB2 | MIC | 8 µg/mL
O=C(NCc1ccccc1)C(CCc1ccccc1)N(CCc1c[nH]cn1)C(=O)c1ccccc1 (racemic) | Escherichia coli |  | TolC |  | MIC | 128 µM
CO[C@@H](C(N)=O)[C@H](NC(=O)c1ccc(NC(=O)[C@@H](N)Cc2ccc(O)cc2)cc1)C(=O)Nc1ccc(C(=O)Nc2ccc(C(=O)Nc3ccc(C(=O)O)cc3)c(O)c2OC(C)C)cc1 | Escherichia coli |  | pentapeptide repeat protein clone | 16 h, 37 °C | MIC | > 8 µg/mL
